# Measured values gathered from unrelated publications.
# Values joined by “and” are separate records of one study, mostly repeats; a detail may differ. ± gives the spread as reported.
Structure (SMILES),tested on,assay,test system,setting,scale,measurement,value
Cc1cc(OC(C)C)ccc1C(=O)C(C)(C)NC(=O)c1sccc1C,Botrytis cinerea,mycelial growth,B05.10,0.01 µg/mL,,inhibition,69.4 ± 5%
O=c1[nH]c2ncsc2c(=O)n1O,Echinochloa crus-galli,glasshouse pot,,"1500 g/ha, 21 days, post-emergence",,inhibition,36.4%
c1ccc(CSc2nc3ccc(-c4ccccc4)cc3cc2CNCc2ccc(CN3CCCC3)cc2)cc1,Acinetobacter baumannii,"NADH-driven proton pumping, ACMA quenching",inverted membrane vesicles,32 µg/mL,,inhibition,95%
CCc1nn(C)c2nc(-c3ccc(C(=O)O)cc3)nc(NCc3ccc(F)cc3)c12,Cryptosporidium parvum,"parasite growth, immunofluorescence imaging","HCT-8, Iowa",6 µM,,inhibition,85.1% and 88.6%
Cc1nc2[nH]c(=O)n(O)c(=O)c2s1,Echinochloa crus-galli,glasshouse pot,,"1500 g/ha, 21 days, post-emergence",,inhibition,21.7%
CN1CCN(CCNCc2cc3cc(-c4ccccc4)ccc3nc2SCc2ccccc2)CC1,Acinetobacter baumannii,"NADH-driven proton pumping, ACMA quenching",inverted membrane vesicles,2 µg/mL,,inhibition,8%
COC[C@H]1O[C@@H]2O[C@@H]3[C@@H](OC)[C@@H](OC)[C@@H](O[C@@H]4[C@@H](OC)[C@@H](OC)[C@@H](O[C@@H]5[C@@H](OC)[C@@H](OC)[C@@H](O[C@@H]6[C@@H](OC)[C@@H](OC)[C@@H](O[C@@H]7[C@@H](OC)[C@@H](OC)[C@@H](O[C@@H]1[C@@H](OC)[C@H]2OC)O[C@@H]7COC)O[C@@H]6COC)O[C@@H]5COC)O[C@@H]4COC)O[C@@H]3COC,Escherichia coli,"LuxR reporter, antagonist",DH5α sensor strain,"40 µM, together with: OHHL 200 nM",,inhibition,0 ± 1%
c1ccc(CSc2nc3ccccc3cc2CNCc2ccc(CN3CCCC3)cc2)cc1,Acinetobacter baumannii,"NADH-driven proton pumping, ACMA quenching",inverted membrane vesicles,32 µg/mL,,inhibition,90%
NC(=O)c1cnc2[nH]ccc2c1N[C@@H]1[C@@H]2CC3C[C@H]1C[C@@](O)(C3)C2,,"flow cytometry, refers to: memory T cells (CD3+ CD45RA-)","Japanese healthy subjects, peripheral blood","oral, 30 mg twice daily, day 7",,change from baseline,1.93%
COC[C@H]1O[C@@H]2O[C@H]3[C@H](OC)[C@@H](OC)[C@@H](O[C@H]4[C@H](OC)[C@@H](OC)[C@@H](O[C@H]5[C@H](OC)[C@@H](OC)[C@@H](O[C@H]6[C@H](OC)[C@@H](OC)[C@@H](O[C@H]7[C@H](OC)[C@@H](OC)[C@@H](O[C@H]8[C@H](OC)[C@@H](OC)[C@@H](O[C@H]1[C@H](OC)[C@H]2OC)O[C@@H]8COC)O[C@@H]7COC)O[C@@H]6COC)O[C@@H]5COC)O[C@@H]4COC)O[C@@H]3COC,Escherichia coli,"LuxR reporter, antagonist",DH5α sensor strain,"10 µM, together with: OHHL 200 nM",,inhibition,-2 ± 2%
c1csc(CNc2cc[nH]n2)c1,human peripheral blood lymphocytes (female),,,"2160 µg/mL, 4 h, repeat, together with: without S9",,cells with numerical aberrations,0.5%
CCc1nc2[nH]c(=O)n(O)c(=O)c2s1,Echinochloa crus-galli,glasshouse pot,,"750 g/ha, 21 days, post-emergence",,inhibition,0%
CC(C)C[C@H](NC(=O)C[C@H](O)[C@H](CC(C)C)NC(=O)[C@H](Cc1c[nH]cn1)NC(=O)CNC(=O)[C@@H](NC(=O)[C@H](C)NC(=O)[C@H](Cc1c[nH]c2ccccc12)NC(=O)[C@H](CCC(N)=O)NC(=O)[C@@H](Cc1ccccc1)NC(=O)COCCOCCNC(=O)CCC(C(=O)O)N1CCN(CC(=O)O)CCN(CC(=O)O)CCN(CC(=O)O)CC1)C(C)C)C(N)=O (stereo partly drawn) [lutetium-177 labelled],,,"BALB/c nu/nu mice, carcass","250 pmol, 1 h, together with: PA 300 µg",,tissue uptake,3.9 ± 0.9 %ID
Cn1cc(-c2ccc(-c3cncc(Cl)c3N3CCC4(CCNC4=O)CC3)cc2)cn1,COLO 205,"gene expression, microarray, refers to: PLK1 mRNA",,"concentration not given, 6 h",reference: untreated cells,log2 fold change,-2.2
CNCc1ccc(-c2[nH]c3cc(F)cc4c3c2CCNC4=O)cc1,,,human patients,"oral, 40 mg once daily, grade 500 or higher",,incidence of neutropenia,11.5%

# Some of these lines once more:
Structure (SMILES),tested on,assay,test system,setting,scale,measurement,value
c1csc(CNc2cc[nH]n2)c1,human peripheral blood lymphocytes (female),,,"2160 µg/mL, 4 h, repeat, together with: without S9",,cells with numerical aberrations,0.5%
